# Experimental data gathered from unrelated publications.
# Protocols differ between the studies behind these lines. Several values in a cell are separate wells, animals, samples, runs or records. ± gives the spread as reported.
SMILES,cell line,test,system,conditions,how to read,quantity,value
CC(C)(C)OC(=O)NCC(=O)N[C@@H](Cc1ccccc1)C(=O)N[C@H](C=O)Cc1c[nH]cn1,HEL,cell morphology,,,,minimum cytotoxic concentration,> 100 µM
O=C1CCP(=S)(c2ccccc2)CC1,PC-3,trypan blue,,"IC50, 72 h",,viability,1.67%
COc1ccc2c(c1OC)C(=O)c1c(cc(C)c(O)c1OC)C2=O,HepaRG co-cultured with HK-2,MTT,,"33.33 µM, 24 h",relative to: untreated control,cell viability,97 ± 9.15%
O=C(O)C(F)(F)C(F)(F)C(F)(F)C(F)(F)F,hTERT-RPTEC-OAT1,,,"concentration not given, Transwell, basolateral-to-apical addition",,LDH release,14.5 mU/mL and 16.4 mU/mL and 21.1 mU/mL
Oc1ccc(C(c2ccc(O)cc2)(C(F)(F)F)C(F)(F)F)cc1,"HepG2 spheroids, dissociated",annexin V-FITC/PI flow cytometry,,"40 µM, 24 h",,viable cells,71.9 ± 8.77%
CC[C@H](C)[C@H](NC(=O)[C@H](CCC(=O)O)NC(=O)[C@H](Cc1ccccc1)NC(=O)[C@H](CO)NC(=O)[C@H](CCCCN)NC(=O)[C@H](CCCCN)NC(=O)[C@H](CC(C)C)NC(=O)[C@H](CCCNC(=N)N)NC(=O)[C@H](CC(C)C)NC(=O)[C@@H]1CCCN1C(=O)[C@@H]1CCCN1C(=O)[C@@H](N)Cc1c[nH]cn1)C(=O)N[C@@H](CC(C)C)C(=O)N[C@H](C(=O)N[C@@H](CCCNC(=N)N)C(=O)N[C@@H](CCCCN)C(=O)N1CCC[C@H]1C(=O)N[C@@H](CCSC)C(=O)N[C@@H](CO)C(=O)N[C@@H](CO)C(=O)N[C@@H](CCCCN)C(=O)N1CCC[C@H]1C(=O)N[C@@H](CCCCN)C(=O)N1CCC[C@H]1C(=O)N1CCC[C@H]1C(=O)N1CCC[C@H]1C(=O)N[C@@H](CCCNC(=N)N)C(=O)N[C@@H](CCCCN)C(=O)N[C@@H](Cc1ccc(O)cc1)C(=O)N[C@@H](Cc1ccccc1)C(=O)N[C@@H](CCCCN)C(=O)N[C@@H](CO)C(=O)O)C(C)C,HaCaT,"cell viability, MTT",,24 h,,CC50,63.5 µM
Cc1cc2c(c(O)c1O)C(=O)c1c(O)cc(O)cc1C2=O,HepaRG co-cultured with HK-2,MTT,,"266.67 µM, 24 h",relative to: untreated control,cell viability,63.5 ± 12%
Cc1cc(C(C)(C)c2ccc(O)c(C)c2)ccc1O,"HepG2 spheroids, dissociated",annexin V-FITC/PI flow cytometry,,"10 µM, 96 h",,viable cells,41.9 ± 2.45%
c1ccc2c(c1)ccc1c3ccccc3ccc21,MCF7 AREc32 cells,"cell confluency, IncuCyte imaging",,"24 h, nominal concentration",,IC10,> 6.88 µM
O=C1c2ccccc2C(=O)c2ccccc21,HK-2 co-cultured with HepaRG,MTT,,"133.33 µM, 24 h",relative to: untreated control,viability,148 ± 24.4%
C=C(C)[C@H]1Cc2c(ccc3c2O[C@@H]2COc4cc(OC)c(OC)cc4[C@@H]2C3=O)O1,THLE-2 transduced with Ad-CYP2D6,metabolism-induced cytotoxicity,,"48 h, 3D Matrigel spots",,IC50,0.4 ± 0.1 µM
C[C@@H](O)[C@H](NC(=O)CNC(=O)CNC(=O)CNC(=O)c1ccc2c(c1)C(=O)OC21c2ccc(O)cc2Oc2cc(O)ccc21)C(=O)N[C@@H](Cc1ccccc1)C(=O)N[C@@H](Cc1ccccc1)C(=O)N[C@@H](Cc1ccc(O)cc1)C(=O)NCC(=O)NCC(=O)N[C@@H](CO)C(=O)N[C@@H](CCCNC(=N)N)C(=O)NCC(=O)N[C@@H](CCCCN)C(=O)N[C@@H](CCCNC(=N)N)C(=O)N[C@@H](CC(N)=O)C(=O)N[C@@H](CC(N)=O)C(=O)N[C@@H](Cc1ccccc1)C(=O)N[C@@H](CCCCN)C(=O)N[C@H](C(=O)N[C@@H](CCC(=O)O)C(=O)N[C@@H](CCC(=O)O)C(=O)N[C@@H](Cc1ccc(O)cc1)C(N)=O)[C@@H](C)O,hCMEC/D3 monolayers,"BBB permeability, Transwell, item: CF-labelled compound",EGM-2 medium,"concentration not given, 2 h, apical to basal",relative to: fluorescence added apically,transport ratio,11%
N#C[C@@]1(n2ccc(N)nc2=O)O[C@H](CO)[C@@H](O)[C@H]1O,CHO,,,"16 µM, with S9",,micronucleated cells,0.34%
CC[C@H](C)[C@H](NC(=O)[C@H](CCCNC(=N)N)NC(=O)[C@@H](NC(=O)[C@H](CC(C)C)NC(=O)[C@H](Cc1c[nH]c2ccccc12)NC(=O)[C@H](Cc1ccc(O)cc1)NC(=O)[C@@H](NC(=O)[C@H](CO)NC(=O)[C@@H](NC(=O)[C@H](CCCNC(=N)N)NC(=O)[C@H](CCC(N)=O)NC(=O)[C@H](CCCNC(=N)N)NC(=O)[C@@H]1CCCN1C(=O)[C@H](CC(C)C)NC(=O)[C@H](CO)NC(=O)[C@@H](NC(=O)[C@H](CC(C)C)NC(=O)[C@@H]1CCCN1C(=O)[C@H](CCC(N)=O)NC(=O)[C@H](CCCCN)NC(=O)[C@H](Cc1c[nH]cn1)NC(=O)[C@H](CS)NC(=O)[C@H](CCCNC(=N)N)NC(=O)[C@H](CCCCN)NC(=O)[C@H](CO)NC(=O)[C@H](CC(C)C)NC(=O)[C@H](CO)NC(=O)[C@H](Cc1ccccc1)NC(=O)[C@H](CC(C)C)NC(=O)[C@H](CCCCN)NC(=O)[C@H](Cc1c[nH]cn1)NC(=O)[C@@H](NC(=O)[C@@H](NC(=O)[C@H](CCCCN)NC(=O)[C@H](CCC(N)=O)NC(=O)[C@H](C)NC(=O)[C@H](CCCCN)NC(=O)[C@H](CC(C)C)NC(=O)[C@H](Cc1ccccc1)NC(=O)[C@@H](N)CC(C)C)[C@@H](C)CC)C(C)C)[C@@H](C)CC)[C@@H](C)O)[C@@H](C)O)[C@@H](C)O)C(=O)O,HaCaT,"cell viability, MTT",,,,CC50,97 µM
CC[C@H](C)[C@H](NC(=O)[C@H](CCCCN)NC(=O)[C@H](CCC(N)=O)NC(=O)[C@@H](NC(=O)[C@@H](NC(=O)[C@H](CCCCN)NC(=O)[C@H](CCCNC(=N)N)NC(=O)[C@H](Cc1ccccc1)NC(=O)CN)[C@@H](C)CC)C(C)C)C(=O)N[C@@H](CCCNC(=N)N)C(=O)N[C@@H](CC(=O)O)C(=O)N[C@@H](Cc1ccccc1)C(=O)N[C@@H](CC(C)C)C(=O)N[C@@H](CCCNC(=N)N)C(=O)N[C@@H](CC(N)=O)C(=O)N[C@@H](CC(C)C)C(=O)N[C@H](C(N)=O)C(C)C,HEK293,"cell viability, MTS",,serum-free,,LC50,42 µM
N#C[C@H](C[C@@H]1CCCNC1=O)NC(=O)[C@H](CC1CC1)NC(=O)c1cc2cccc(Cl)c2[nH]1,cryopreserved human hepatocytes,"mRNA induction, inducer, item: CYP2B6",,72 h,,EC50,4.84 µM
CC[C@H](C)[C@H](NC(=O)CNC(=O)[C@H](CC(N)=O)NC(=O)[C@H](Cc1ccc(O)cc1)NC(=O)[C@H](CO)NC(=O)CNC(=O)[C@H](CCCNC(=N)N)NC(=O)[C@H](CCC(N)=O)NC(=O)[C@H](Cc1ccccc1)NC(=O)[C@H](Cc1ccccc1)NC(=O)[C@H](Cc1c[nH]cn1)NC(=O)[C@H](Cc1ccccc1)NC(=O)[C@@H](N)Cc1c[nH]c2ccccc12)C(=O)O,HaCaT,"cytotoxicity, MTT",,"24 h, 37 °C",,IC50,> 200 µM
O=c1ccc2ccccc2o1,HepaRG 3D spheroids,glutathione content,,"72 h, high-content imaging",,point of departure,514 µM
CC(C)(C)[C@@H]1NC(=O)O[C@@H]2CCC[C@H]2OC/C=C/C(F)(F)c2nc3ccccc3nc2O[C@@H]2C[C@@H](C(=O)N[C@]3(C(=O)NS(=O)(=O)C4(C)CC4)C[C@H]3C(F)F)N(C2)C1=O,HEK293T,"cell viability, MTT",,48 (unit not given),,CC50,> 50 µM
O=C(O)C(F)(F)C(F)(F)C(F)(F)C(F)(F)C(F)(F)C(F)(F)C(F)(F)C(F)(F)C(F)(F)F,hTERT-RPTEC-OAT1,LDH release,culture medium,"concentration not given, 24 h, 96-well plate",,LDH activity in medium,5.82 mU/mL
C#CCCC[C@H]1OC(=O)[C@H](C(C)C)N(C)C(=O)[C@@H]2CCCN2C(=O)[C@H]([C@@H](C)CC)OC(=O)[C@H]([C@@H](C)CC)N(C)C(=O)[C@H]([C@@H](C)CC)NC(=O)[C@H]1C,HEK293,resazurin reduction,,24 h,,LC50,> 30 µM
CC(=O)OC[C@H]1O[C@@H](Oc2cc(O)cc3cc4oc(C)cc(=O)c4c(O)c23)[C@H](O)[C@@H](O)[C@@H]1O,HK-2 co-cultured with HepaRG,MTT,,"16.67 µM, 24 h",relative to: untreated control,cell viability,112 ± 15%
CC[C@H](C)[C@H](NC(=O)[C@H](CC(C)C)NC(=O)[C@@H]1CCCN1C(=O)[C@@H]1CCCN1C(=O)[C@H](CCCCN)NC(=O)[C@H](CO)NC(=O)[C@@H](NC(=O)[C@@H](NC(=O)[C@H](CC(=O)O)NC(=O)[C@H](CC(C)C)NC(=O)[C@H](CCCCN)NC(=O)[C@H](Cc1ccc(O)cc1)NC(=O)[C@H](CCSC)NC(=O)[C@H](CCCCN)NC(=O)[C@@H](N)[C@@H](C)O)C(C)C)C(C)C)C(=O)N[C@@H](CC(N)=O)C(=O)NCC(=O)N[C@@H](CC(C)C)C(=O)N[C@@H](Cc1ccc(O)cc1)C(=O)N[C@H](C(=O)N[C@@H](CC(N)=O)C(=O)N[C@@H](CCCNC(=N)N)C(=O)N[C@H](C(=O)N[C@H](C(=O)N[C@H](C(=O)N[C@@H](CCCCN)C(=O)N[C@@H](C)C(=O)N[C@H](C(=O)N[C@@H](C)C(=O)N[C@H](C(=O)N[C@@H](CCCNC(=N)N)C(=O)N[C@@H](Cc1c[nH]cn1)C(=O)N[C@@H](CO)C(=O)N[C@@H](CCCCN)C(=O)N[C@@H](CCCCN)C(=O)N[C@@H](Cc1c[nH]cn1)C(=O)N[C@@H](Cc1ccccc1)C(=O)O)C(C)C)[C@@H](C)O)[C@@H](C)CC)C(C)C)[C@@H](C)O)[C@@H](C)O,HaCaT,"cell viability, MTT",,24 h,,CC50,119 µM
CC(c1ccccc1)(c1ccc(O)cc1)c1ccc(O)cc1,"HepG2 spheroids, dissociated",annexin V-FITC/PI flow cytometry,,"1 µM, 24 h",,viable cells,70.5 ± 9.47%
O=C(O)C(F)(F)C(F)(F)C(F)(F)C(F)(F)C(F)(F)C(F)(F)C(F)(F)C(F)(F)C(F)(F)C(F)(F)F,hTERT-RPTEC-OAT1,,,"concentration not given, Transwell, basolateral-to-apical addition",,LDH release,18.1 mU/mL and 15.3 mU/mL and 11.3 mU/mL and 17.6 mU/mL
CC(C)NCC(O)COc1ccc(CC(N)=O)cc1 (centres unmarked),MCF7 AREc32 cells,"cell viability, IncuCyte imaging",,"24 h, freely dissolved concentration",,IC10,4730 µM

# Repeated from above:
SMILES,cell line,test,system,conditions,how to read,quantity,value
C[C@@H](O)[C@H](NC(=O)CNC(=O)CNC(=O)CNC(=O)c1ccc2c(c1)C(=O)OC21c2ccc(O)cc2Oc2cc(O)ccc21)C(=O)N[C@@H](Cc1ccccc1)C(=O)N[C@@H](Cc1ccccc1)C(=O)N[C@@H](Cc1ccc(O)cc1)C(=O)NCC(=O)NCC(=O)N[C@@H](CO)C(=O)N[C@@H](CCCNC(=N)N)C(=O)NCC(=O)N[C@@H](CCCCN)C(=O)N[C@@H](CCCNC(=N)N)C(=O)N[C@@H](CC(N)=O)C(=O)N[C@@H](CC(N)=O)C(=O)N[C@@H](Cc1ccccc1)C(=O)N[C@@H](CCCCN)C(=O)N[C@H](C(=O)N[C@@H](CCC(=O)O)C(=O)N[C@@H](CCC(=O)O)C(=O)N[C@@H](Cc1ccc(O)cc1)C(N)=O)[C@@H](C)O,hCMEC/D3 monolayers,"BBB permeability, Transwell, item: CF-labelled compound",EGM-2 medium,"concentration not given, 2 h, apical to basal",relative to: fluorescence added apically,transport ratio,11%
O=C1CCP(=S)(c2ccccc2)CC1,PC-3,trypan blue,,"IC50, 72 h",,viability,1.67%
N#C[C@H](C[C@@H]1CCCNC1=O)NC(=O)[C@H](CC1CC1)NC(=O)c1cc2cccc(Cl)c2[nH]1,cryopreserved human hepatocytes,"mRNA induction, inducer, item: CYP2B6",,72 h,,EC50,4.84 µM
O=C(O)C(F)(F)C(F)(F)C(F)(F)C(F)(F)F,hTERT-RPTEC-OAT1,,,"concentration not given, Transwell, basolateral-to-apical addition",,LDH release,14.5 mU/mL and 16.4 mU/mL and 21.1 mU/mL
